Measured values from different studies.
Every numbered part comes from another study and shows a few of its results, in no order. Changes are numbered by the printed parent chain.

Series 1 — target: CCND2, cyclin fold, Cln2 fusion (human); technique: yeast growth competition, sequencing; medium: yeast; notes: weak parent motif; reference: not given; reading: higher = stronger binding
Parent: E2F2 docking peptide (human); LPAKRKLDLEGIG
For `LPAKRKLDFEGIG [L9F]`, “normalised enrichment score” read 2.49.
Under “normalised enrichment score”, `LPAKRKLDLAGIG [E10A]` is recorded as 0.424.
`LPAKKKLDFEGIG [R5K L9F]`: “normalised enrichment score” 0.497.
`LPAKRKLDLEAIG [G11A]` — result for “normalised enrichment score”: 0.131.
`LPAKRKADLEGIG [L7A]` — result for “normalised enrichment score”: 0.262.
`LPAKRKLDLEGIA [G13A]`: “normalised enrichment score” 0.699.
For `LPAKAKADLEGIG [R5A L7A]`, “normalised enrichment score” read 0.218.
`APAKRKLDLEGIG [L1A]`: “normalised enrichment score” 0.495.
For `LPAARKLDLEGIG [K4A]`, “normalised enrichment score” read 0.858.

Series 2 — technique: RNA Bind-n-Seq; form: RNA; medium: in vitro; concentration: 365 nM; reference: no-protein control; reading: higher = stronger binding
Target: RNA binding protein fox-1 homolog 2, RRM domain, GST-SBP tag (RBFOX2, Homo sapiens, UniProt O43251-10, residues 100-194)
Notes: natural RNA segment, single round, ends assumed
`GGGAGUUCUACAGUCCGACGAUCUGUAUUUUUGUAUAUUGUAUUUAUAUAUAAAGAAAGAAAUGUCUACUUAUGCAUGCUAAAUUAUUAUUUAGCUUUCCCAUCCCCCAGGGUGGAGAUGGAAUGUAAAAUAAUGGAAUUCUCGGGUGCCAA` — result for “RBNS enrichment (R)”: 2.58.
`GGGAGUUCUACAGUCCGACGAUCGCUGAAGGCUGGUUGUGGAUCCUUGUUCCUCUCCUGACCCCAUCUGGCUGCUGCCCCGUCUCCCACCCCUGUCCCCGGGGCUCGCUGGCCCUGCACUCCGCCUUAGUCCUUGGAAUUCUCGGGUGCCAA` — result for “RBNS enrichment (R)”: 1.73.
`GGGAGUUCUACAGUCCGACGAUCCCCAAAGCGGGACGCCGCAGGUGUUUGGCACCCAAAUCACAUCUCACCUCCGAACUGUUCAAGUGUCCCCAGACCCUUCUUGCCUGCUGGGCUCCCCCCAGUGGGAUGGGUGGAAUUCUCGGGUGCCAA`: “RBNS enrichment (R)” 0.418.
Under “RBNS enrichment (R)”, `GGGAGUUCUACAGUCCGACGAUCGAGGUGCUGUCUAUAAAGCCCCCCCGGGGGCUAACCUUUGCUCAGAUUCUUAAAAAGCAGUGGUUAAUUUGCUGGCUUUUCAAACCCUGCCCGCCCUGGUUUGCCUGCGGUGGAAUUCUCGGGUGCCAA` is recorded as 0.447.
Under “RBNS enrichment (R)”, `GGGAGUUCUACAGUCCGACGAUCAUAUGAUUUUCUUAUAAAACAGAAAAGAAUUAUAAGAAUAUAUUGAAAAUAAAAGAAUUGAAAGGUACUUGUUGAUAGAGUCAUAUAUUACUUAUUGGUAUGUAUACUGAUGGAAUUCUCGGGUGCCAA` is recorded as 0.613.
For `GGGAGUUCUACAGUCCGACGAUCCCCUGGCAGCCAUGUUUAGGAAACACAGUAUACCCACUCCCUGCACCACCAGACACGUGCCCACAUCUGUCCCACUCUGGUCCUCGGGGGCCACUCCACCCUUAGGGAGCUGGAAUUCUCGGGUGCCAA`, “RBNS enrichment (R)” read 0.439.
For `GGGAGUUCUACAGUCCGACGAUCGUUUUACAAAUUUAAUUUUGCAGAUUAUUUUAGUCUGUCAUCCAGAAAAUGUGUCAGCAUGCAUAGUGCUAAGAAAGCAAGCCAAUUUGGAAACUUAGGUUAGUGACAAAUGGAAUUCUCGGGUGCCAA`, “RBNS enrichment (R)” read 1.78.
Under “RBNS enrichment (R)”, `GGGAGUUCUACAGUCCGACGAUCGUAAGAACUAAUAACCUGUGUCUCCUAGACGAGUCAGGAUGGGAACUGACCUCUAGGAGAUUCUAGUCAGGAGCCCACUAACCUGGGCCGUCAUGUUUAGAGCUGAAGGAUGGAAUUCUCGGGUGCCAA` is recorded as 0.597.

Series 3 — technique: protein binding microarray; form: double-stranded DNA, one strand shown; medium: in vitro; concentration: not given; reference: not given; reading: higher = stronger binding
Target: Histone acetyltransferase KAT6A, winged helix 1, GST fusion (KAT6A, Homo sapiens, UniProt Q92794, residues 1-85)
Notes: 8-mer, flanks averaged, mean of 2 arrays, mostly near background
Construct (chain): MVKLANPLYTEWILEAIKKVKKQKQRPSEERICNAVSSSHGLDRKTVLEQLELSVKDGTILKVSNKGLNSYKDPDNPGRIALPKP
`AGGAGGTG` gave an E-score of -0.186.
With `AAGTTATG` the E-score was -0.117.
`GTCGCTAA` gave an E-score of 0.161.
The E-score of `ATCTAGGC` is reported as -0.0412.
`CACGACGA` has an E-score of -0.0909.
`GACCGGCA` gave an E-score of 0.279.
For `GGCTGCGA`, the E-score was -0.037.
`CACGCATG` gave an E-score of 0.0428.
For `ACACATGC`, the E-score was -0.0123.
With `AGCTTGGC` the E-score was -0.0862.
With `GTACGCTA` the E-score was 0.252.
With `GATAGAAC` the E-score was -0.108.
For `ATCTACCA`, the E-score was -0.288.
With `CCTGAAAA` the E-score was 0.000715.
With `CAAAATGG` the E-score was -0.0785.
`GTCGATCA` has an E-score of -0.184.
`ACAATAAG` has an E-score of -0.148.
With `AGGCCGTC` the E-score was 0.338.
The E-score of `TAACAATA` is reported as -0.062.
The E-score of `CGTCCCAC` is reported as 0.129.
`GGTATAGA` gave an E-score of -0.0776.
`TAACCCGA` gave an E-score of 0.174.
With `AACGTGCT` the E-score was -0.202.
`GAATTTGC` gave an E-score of -0.123.
For `CGGGTATC`, the E-score was 0.25.

Series 4 — target: ATF1, bZIP domain (human); technique: DHFR protein complementation; medium: yeast; reference: wild-type JUN-FOS pair; reading: higher = stronger binding
Notes: single substitutions, most at no-binding floor
Parent: JUN, bZIP domain (human); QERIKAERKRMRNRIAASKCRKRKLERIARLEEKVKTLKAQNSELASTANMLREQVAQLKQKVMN; partner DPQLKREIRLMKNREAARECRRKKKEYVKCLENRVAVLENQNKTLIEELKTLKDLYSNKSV
For `R53G`, the binding fitness was -1.55 natural log.
For `L52S`, the binding fitness was -1.52 natural log.
With `E44V` the binding fitness was -1.51 natural log.
For `N42C`, the binding fitness was -1.57 natural log.
For `N42D`, the binding fitness was -1.46 natural log.
With `T37F` the binding fitness was -1.54 natural log.
With `Q55K` the binding fitness was -1.57 natural log.
With `K34C` the binding fitness was -1.58 natural log.
`L45Y` has a binding fitness of -1.49 natural log.
For `K36H`, the binding fitness was -1.31 natural log.
With `Q41G` the binding fitness was -1.52 natural log.
`T48K` has a binding fitness of -1.53 natural log.
`L52R` gave a binding fitness of -1.51 natural log.
`N42I` has a binding fitness of -1.53 natural log.
`K34V` gave a binding fitness of -1.53 natural log.
The binding fitness of `A40E` is reported as -1.32 natural log.
With `T48H` the binding fitness was -1.54 natural log.
`K36W` has a binding fitness of -1.49 natural log.
The binding fitness of `T37P` is reported as -1.56 natural log.
For `V35H`, the binding fitness was -1.5 natural log.
The binding fitness of `V35C` is reported as -1.61 natural log.
`A29G` gave a binding fitness of -1.44 natural log.

Series 5 — technique: DHFR PCA, deep sequencing; medium: yeast; together with: (+)-ABA 17 µM; reference: wild-type fitted maximum; reading: higher = stronger binding
Target: ABI1, truncated, D143A, DHFR fusion (Arabidopsis thaliana)
Notes: methotrexate growth selection, single substitutions
Parent: PYL1, truncated, DHFR fusion (Arabidopsis thaliana); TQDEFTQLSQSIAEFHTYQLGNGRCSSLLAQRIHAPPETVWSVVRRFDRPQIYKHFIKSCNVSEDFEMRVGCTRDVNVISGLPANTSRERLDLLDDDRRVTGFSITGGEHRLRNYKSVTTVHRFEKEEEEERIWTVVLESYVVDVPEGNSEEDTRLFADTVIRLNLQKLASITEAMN
For `N77C`, “relative binding score” read 89%.
`P83I` — result for “relative binding score”: -5.25%.
`S63K` — result for “relative binding score”: 85.4%.
`T39E`: “relative binding score” 73.6%.
`I172F` — result for “relative binding score”: 64.3%.
For `R49A`, “relative binding score” read 81.9%.
Under “relative binding score”, `N149E` is recorded as 13%.
`K54P`: “relative binding score” -6.21%.
`Q2L`: “relative binding score” 87.5%.
Under “relative binding score”, `N114I` is recorded as 2.13%.
`E174S`: “relative binding score” 61.5%.
`R74V`: “relative binding score” -8.72%.
`K54W`: “relative binding score” -1.06%.
For `L91H`, “relative binding score” read -19.9%.
Under “relative binding score”, `I57T` is recorded as 15.4%.
`T119Q` — result for “relative binding score”: 74.8%.
Under “relative binding score”, `E131H` is recorded as 86.8%.
`E131L` — result for “relative binding score”: 86.6%.
`T154Y`: “relative binding score” -12.2%.
Under “relative binding score”, `K116V` is recorded as 28.6%.
For `F66I`, “relative binding score” read 56.3%.
For `V44T`, “relative binding score” read 18.6%.
Under “relative binding score”, `R24N` is recorded as 65.7%.
`V145L`: “relative binding score” 55.2%.
`N61R`: “relative binding score” 88.4%.

Further values, each from its own experiment
`PhoQ, residues 284 288 289 292 302 303 SIHMAM` has a fold induction of 4.79 (PhoP, residues 12 14 15 18 19 TPWLV (Escherichia coli, UniProt P23836); Sort-seq, refers to: YFP reporter; E. coli; PhoQ-PhoP variant library, together with: 10 µM Mg2+; reference: high Mg2+ state, higher = stronger signaling).

Repeated from above (series 2):
Under “RBNS enrichment (R)”, `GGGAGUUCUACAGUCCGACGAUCGUAAGAACUAAUAACCUGUGUCUCCUAGACGAGUCAGGAUGGGAACUGACCUCUAGGAGAUUCUAGUCAGGAGCCCACUAACCUGGGCCGUCAUGUUUAGAGCUGAAGGAUGGAAUUCUCGGGUGCCAA` is recorded as 0.597.
`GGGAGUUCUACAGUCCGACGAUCUGUAUUUUUGUAUAUUGUAUUUAUAUAUAAAGAAAGAAAUGUCUACUUAUGCAUGCUAAAUUAUUAUUUAGCUUUCCCAUCCCCCAGGGUGGAGAUGGAAUGUAAAAUAAUGGAAUUCUCGGGUGCCAA` — result for “RBNS enrichment (R)”: 2.58.
For `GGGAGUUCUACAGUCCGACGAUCCCCUGGCAGCCAUGUUUAGGAAACACAGUAUACCCACUCCCUGCACCACCAGACACGUGCCCACAUCUGUCCCACUCUGGUCCUCGGGGGCCACUCCACCCUUAGGGAGCUGGAAUUCUCGGGUGCCAA`, “RBNS enrichment (R)” read 0.439.
Under “RBNS enrichment (R)”, `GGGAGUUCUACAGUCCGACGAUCAUAUGAUUUUCUUAUAAAACAGAAAAGAAUUAUAAGAAUAUAUUGAAAAUAAAAGAAUUGAAAGGUACUUGUUGAUAGAGUCAUAUAUUACUUAUUGGUAUGUAUACUGAUGGAAUUCUCGGGUGCCAA` is recorded as 0.613.
`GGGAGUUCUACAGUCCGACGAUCGCUGAAGGCUGGUUGUGGAUCCUUGUUCCUCUCCUGACCCCAUCUGGCUGCUGCCCCGUCUCCCACCCCUGUCCCCGGGGCUCGCUGGCCCUGCACUCCGCCUUAGUCCUUGGAAUUCUCGGGUGCCAA` — result for “RBNS enrichment (R)”: 1.73.
For `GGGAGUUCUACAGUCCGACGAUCGUUUUACAAAUUUAAUUUUGCAGAUUAUUUUAGUCUGUCAUCCAGAAAAUGUGUCAGCAUGCAUAGUGCUAAGAAAGCAAGCCAAUUUGGAAACUUAGGUUAGUGACAAAUGGAAUUCUCGGGUGCCAA`, “RBNS enrichment (R)” read 1.78.
Under “RBNS enrichment (R)”, `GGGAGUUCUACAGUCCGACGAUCGAGGUGCUGUCUAUAAAGCCCCCCCGGGGGCUAACCUUUGCUCAGAUUCUUAAAAAGCAGUGGUUAAUUUGCUGGCUUUUCAAACCCUGCCCGCCCUGGUUUGCCUGCGGUGGAAUUCUCGGGUGCCAA` is recorded as 0.447.
`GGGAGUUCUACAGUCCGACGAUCCCCAAAGCGGGACGCCGCAGGUGUUUGGCACCCAAAUCACAUCUCACCUCCGAACUGUUCAAGUGUCCCCAGACCCUUCUUGCCUGCUGGGCUCCCCCCAGUGGGAUGGGUGGAAUUCUCGGGUGCCAA`: “RBNS enrichment (R)” 0.418.
